Assay results of several laboratories.
Every numbered part comes from another study and shows a few of its results, in no order. Substitutions count along the parent as printed.

Series 1
Target: RNA binding protein fox-1 homolog 2, RRM domain, GST-SBP tag (RBFOX2, Homo sapiens, UniProt O43251-10, residues 100-194)
Method: RNA Bind-n-Seq
Form: RNA
Matrix: in vitro
Concentration: 365 nM
Notes: natural RNA segment, single round, ends assumed
Reference: no-protein control
Direction: higher = stronger binding
Quantity: RBNS enrichment (R)
Shared flanks, not repeated: GGGAGUUCUACAGUCCGACGAUC … UGGAAUUCUCGGGUGCCAA
Residues (chain): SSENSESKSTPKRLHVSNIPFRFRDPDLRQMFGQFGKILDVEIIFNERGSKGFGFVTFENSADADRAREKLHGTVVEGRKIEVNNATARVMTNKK
GCUGCCCUGAGUGCCCACGCGAGGGCGGCCGCAAGUUGACUAAACGGGGACACACACGGCUGAACCUUCCCCACGGGACCCCGAGUGGCCCCACCCUGCCUCUUGUCCUG: 0.318
CCUAGAAUUUCUUUUAUAAAUGCUUUGUUUACAUUUUAGAUUGUAUCUGUCCUUAAUGUCAAAUGAUGAAUCCAGUUUGAAUCAGCUGUCAUUCCAAGCUAUCAUGCUCA: 0.604
AUCUUAACCGAUUUCUUGAACAGUGUUUAAGUACAGUGUGAUUUGUGCCCCGAGACAGUCAGAACAGAGUGUGUGUGCUCGUCCGACUGACAGACAGACAGGCAGGCAGG: 0.344
UUAAGUGACAAACACGGUCAAAAGCUUAAGGGACAGGUUUUAUGGUUGCUUGUGUAAUAAAGCAUGUCCUUCGUAUGUCACAGUUUGGGGCAACGGAAGUCUUUUAGUGA: 25.2
UUUUUAAAGUCCUAGUAGAAAAAGUCAAAUACAUCUGCAUUUAAUUUAUGUCUGCAUAUUCUUCUAGCUGAAUUUUUGAUUUUACUACAUUUGAUAUUUUUCUUUUUAGU: 1.17
GAGAAACUGGAGUGUUUUUGAUUUCAUGGUAAAAGUUUGUGUGUUUUACAUUUGAAUGUUCACAGUUUUCUCUCAGAGAAGUGCCAGACAUUGUUUUGUGCUUUUGAAGA: 2.18
UACCAGGAGAGUUGAGAGAUAGUAACUAUAGUUUUUCUUAGGUCUUUGUUUACUAAGGGUCUGCUUAGGAAGAAUUCAGGGAGGAACUGUGCUGUGGUGUGACCAAUGAA: 0.803
AUCAUUUAUUUAUUGGUGCUACUGUUUAUCCGUAAUAAUUGUGGGGGAAAAAGAUAUUAACAUCACGUCUUUGUCUCUAGAGCAGUUUUCCGAGAUAUUCCGUAGUACAU: 0.538
GAGCCUGUUCCUCACUGGAAAUUGGCCUCUGUGUGUGUGUGUGUGUGUGUGUGUGUGUGUAUGUUCAUGUACACUUGGCUGUCAGGCUUUCUGUGCAUGUACUAAAAAAG: 4.07
AGUGAUUCUUGCACAUGAAUUGUCACAUAUUAUAUGUGUUUUUUAAAGAGCCUCAGUCUGACUGAUUUCAAACACUUUUUUUCUCCUGUGUAUUGCUUUUAAGAGAGCCA: 0.64
GGGAAGGAGGGCCGUGUGGUGCUUUGCUAGAUAGGACGGUUUUUGCAAAGCACCUGGAGAUGUUUGCUGGGAGAUAGACUCCCACUCCACAAAGGUGCUGGGUGGCUCUC: 14.5

Series 2
Target: CCNA1, cyclin fold, Cln2 fusion (human)
Method: yeast growth competition, sequencing
Matrix: yeast
Notes: weak parent motif
Reference: not given
Direction: higher = stronger binding
Quantity: normalised enrichment score
Starting sequence: E2F1 docking peptide (human); PPVKRRLDLETDH; partner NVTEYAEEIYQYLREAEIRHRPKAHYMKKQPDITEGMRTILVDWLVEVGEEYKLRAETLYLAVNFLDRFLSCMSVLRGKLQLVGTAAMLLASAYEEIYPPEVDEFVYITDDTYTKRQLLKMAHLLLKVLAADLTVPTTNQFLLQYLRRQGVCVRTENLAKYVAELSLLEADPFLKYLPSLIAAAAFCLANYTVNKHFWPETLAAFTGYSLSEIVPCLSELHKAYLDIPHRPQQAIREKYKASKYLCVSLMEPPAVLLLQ
D8A: 0.374
L7Y: 0.24
K4D: 0.194
V3G: 0.174
P1I: 0.408
R5E: 0.245
E10Q: 0.653

Series 3
Target: Fragile X messenger ribonucleoprotein 1, C-terminal low-complexity region (Fmr1, Mus musculus, UniProt P35922)
Method: RNA Bind-n-Seq
Form: RNA
Matrix: in vitro
Concentration: 200 nM
Notes: whole 134-nt RNA, ends assumed
With: 150 mM LiCl
Reference: input library
Direction: higher = stronger binding
Quantity: log2 enrichment
Each molecule: 7-deaza-guanosine replaces G
Shared flanks, not repeated: GGGAGUUCUACAGUCCGACGAUC … UGGAAUUCUCGGGUGUCAAGG
CUGUGCUACACAUCGUAUGUACCGAAUCAAAGUGUGUGUGUGUGUAAAGUGUGUGUGUAAAAAAGUAUUAUGUUACGCCGUUCGGAUCUG: -1.5
CACAAAAAACACGCACCCACACAGACACAGAGGGAAGGGGUUGGGAUGGGGACAGGGUGCACAGCAGGGCGGGGUAGGACCCCAGCCCCU: 0.778
UGUGUGCAUUCCCUGCGCCAAGGGCUUCCCCAGCUCUGAGCAGCUCAAUGCGCACGUGGAGACUCACACGGAGGAAGAGCUGUUCAUCAA: -1.9
CUGUGCUACACAUCGUAUGUACCGAAUCGGGGAAAAAAAGGGGAAAAAGGGGAAAAAGGGGAAAGUAUUAUGUUACGCCGUUCGGAUCUG: 1.11
GUCCUGUGCUACACAUCGUAUGUACCGAAUCGGGGUUUUUGGGGUUUUUGGUUUUUGGAAAGUAUUAUGUUACGCCGUUCGGAUCUGCAC: -1.26
UCAAGUCCUGUGCUACACAUCGUAUGUACCGAAUCGGAAAGGAAAGGUUUUUGGAAAGUAUUAUGUUACGCCGUUCGGAUCUGCACUUCC: -0.919
UGGGAGGUGGAUUUUGUUAAUUUUUUUAGCUCAUUUCCAGGGGUGGGAAUUUUUUUUUAAUAUGUGUCAUGAAUAAAGUUGUUUUUGAAA: -0.65
UAACUUUAGAGGAGGAUCUGAUGGAUAUGGAAGUGGACGUGGAUUUGGGGAUGGCUAUAAUGGGUAUGGAGGAGGACCUGGAGGUGGCAA: 0.571
UGGCCCUGGUGGCAUGCGGGGAGGAAGAGGUGGCCUCAUGGAUCGUGGUGGUCCCGGUGGAAUGUUCAGAGGUGGCCGUGGUGGAGAUAG: -0.111
ACCAUGCAGGUGGAAAUCUUUGGGAAGUGGGGCAAGGGGGGGAUAGGGAGGGGGGUAACACUUUGGGAACAGGUGGUCCCAGGUCGUUUC: 1.29
AGUCCUGUGCUACACAUCGUAUGUACCGAAUCGGGGAAAGGGGUUUGGGGAAAGGGGAAAGUAUUAUGUUACGCCGUUCGGAUCUGCACU: -0.913

Further values, each from its own experiment
PhoQ, residues 284 288 289 292 302 303 SNGLAW  fold induction (PhoP, residues 12 14 15 18 19 NHTVL (Escherichia coli, UniProt P23836); Sort-seq, refers to: YFP reporter; E. coli; PhoQ-PhoP variant library, with: 10 µM Mg2+; reference: high Mg2+ state, higher = stronger signaling): 6.94

Repeated from above (series 3):
UGUGUGCAUUCCCUGCGCCAAGGGCUUCCCCAGCUCUGAGCAGCUCAAUGCGCACGUGGAGACUCACACGGAGGAAGAGCUGUUCAUCAA: -1.9
UAACUUUAGAGGAGGAUCUGAUGGAUAUGGAAGUGGACGUGGAUUUGGGGAUGGCUAUAAUGGGUAUGGAGGAGGACCUGGAGGUGGCAA: 0.571
ACCAUGCAGGUGGAAAUCUUUGGGAAGUGGGGCAAGGGGGGGAUAGGGAGGGGGGUAACACUUUGGGAACAGGUGGUCCCAGGUCGUUUC: 1.29
UCAAGUCCUGUGCUACACAUCGUAUGUACCGAAUCGGAAAGGAAAGGUUUUUGGAAAGUAUUAUGUUACGCCGUUCGGAUCUGCACUUCC: -0.919
